Published values pooled from the literature.
Each line is one published result; not all experiments were run side by side. ± gives the spread as reported. Where no end group is shown, it is not given here. [ ]: non-standard residue; d: D form.
OGG1 full length assumed: OGG1 full length assumed (Homo sapiens, UniProt O15527)
Eif4e: Eif4e fragment (Mus musculus)
TFRC residues 1-760: TFRC residues 1-760 (Homo sapiens, UniProt P02786)
T1: NR1I2/RXRA (Homo sapiens); chain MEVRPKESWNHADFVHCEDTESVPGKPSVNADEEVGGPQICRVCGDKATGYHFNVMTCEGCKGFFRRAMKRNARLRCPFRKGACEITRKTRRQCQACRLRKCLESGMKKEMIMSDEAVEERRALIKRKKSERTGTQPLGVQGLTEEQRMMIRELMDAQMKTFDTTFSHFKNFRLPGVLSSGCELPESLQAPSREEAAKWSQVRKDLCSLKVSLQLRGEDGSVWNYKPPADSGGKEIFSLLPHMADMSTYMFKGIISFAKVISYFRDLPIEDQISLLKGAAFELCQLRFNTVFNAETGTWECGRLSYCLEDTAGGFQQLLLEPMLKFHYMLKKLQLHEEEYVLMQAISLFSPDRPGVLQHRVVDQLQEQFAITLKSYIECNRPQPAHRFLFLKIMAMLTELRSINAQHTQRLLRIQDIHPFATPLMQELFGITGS; chain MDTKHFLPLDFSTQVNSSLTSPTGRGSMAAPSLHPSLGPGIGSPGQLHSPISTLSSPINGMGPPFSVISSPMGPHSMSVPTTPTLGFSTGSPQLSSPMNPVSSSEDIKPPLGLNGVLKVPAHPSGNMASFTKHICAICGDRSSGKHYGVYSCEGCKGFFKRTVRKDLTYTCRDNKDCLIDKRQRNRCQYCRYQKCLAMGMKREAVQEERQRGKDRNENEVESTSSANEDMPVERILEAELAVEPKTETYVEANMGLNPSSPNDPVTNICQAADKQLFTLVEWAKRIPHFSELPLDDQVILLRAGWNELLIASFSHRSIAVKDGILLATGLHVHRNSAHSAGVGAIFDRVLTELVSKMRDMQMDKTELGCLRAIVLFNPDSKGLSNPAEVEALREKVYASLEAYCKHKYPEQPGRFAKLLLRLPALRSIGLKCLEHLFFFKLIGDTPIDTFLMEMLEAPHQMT

`[Nva]VIA (Nva = CCC[C@H](N)C(=O)O)` has a cell viability of 70% (PC-12; protection from Aβ1–42 toxicity, MTT; concentration not given, 6 h, Aβ to peptide ratio 1:5, added: Aβ1–42 2 µM; baseline: untreated cells).
`GCAUUGGUGGUUCAGUGGUAGAAUUCUCGC (ssRNA; 2'-OMe U4; m2G6; dihydrouridine 19)` has a Kd of 220 nM (Hnrnph1 1-449 (Mus musculus, UniProt O35737); EMSA).
With `CGATCATGGAGGCTANCGCTCCCGTTACAG / CTGTAACGGGAGCGCTAGCCTCCATGATCG (dsDNA; blunt, chloroindole analog position 16)` the Kd was < 0.003 nM (OGG1 full length assumed; EMSA; 25 °C, product formed during incubation).
With `GGGAGACCGGCCUCGA (ssRNA; 5' GpppG cap, linear)` the Kd was 5.64 nM (IFIT1 full length assumed (Homo sapiens, UniProt P09914); BLI).
`GAG (ssRNA; m7G 5'-5' triphosphate cap, N6-methyl A2)` gave a Kd of 35.2 ± 0.8 nM (Eif4e; fluorescence quenching titration).
With `UGT1A9 (Homo sapiens, UniProt O60656)` the Vmax/Km was 32 µL/min/mg (CCCCOC(=O)c1ccc(O)cc1; steady-state kinetics; pH 7.4, 37 °C).
`GCACCUCUGCUUGCUGUUUACCUGUAUGUUAAUUCGCUUG (ssRNA)` has a Kd of 5.8 nM (MBNL1 1-260 (Homo sapiens, UniProt Q9NR56); EMSA).
`TGACTACTACATNGTTGCCTACCAT / ATGGTAGGCAACTATGTAGTAGTCA (dsDNA; blunt, abasic THF site)` gave a Kd of 3100 ± 300 nM (DNA alkylation repair protein full length assumed (Bacillus cereus, UniProt Q816E8); fluorescence anisotropy).
With `CACGACGCAAGGGACCACAGGTGGACCGCTAACTCCGGCCCAGGTCCAGCACGACACCGCAGAGGCA (ssDNA; indole-modified 5-ethynyl-dU at 22, 30, 34, 45)` the Kd was 29 nM (CSPG4 30-2224 (Homo sapiens, UniProt Q6UVK1); SPR single-cycle kinetics; added: Mg2+ 5 mM).
With `AAATAATCATAAAGTATTAAAGTAATATATAC (dsDNA (Arabidopsis thaliana))` the Kd was 5000 nM (DOF3.4 zinc finger (Arabidopsis thaliana, UniProt Q39088); EMSA; double-stranded DNA, one strand shown).
With `ACCGCTATGTATTTCGTACATTACTGCCAGCCACCATGAATATTGTACGGTACCATAAATACTTGACCACCTGTAGTACATAAAAACCCAATCCACATCAAAACCCCCTCCCCATGCTTA (D-loop DNA; D-loop in supercoiled plasmid)` the Kd was 1.5 nM (POLG2 fragment (Homo sapiens); EMSA; least cold plasmid).
For `V[dV]IA (D-Val2)`, the cell viability was 70% (PC-12; protection from Aβ1–42 toxicity, MTT; concentration not given, 6 h, Aβ to peptide ratio 1:1, added: Aβ1–42 2 µM; baseline: untreated cells).
`CGATCATGGAGGCTANCGCTCCCGTTACAG / CTGTAACGGGAGCGCTAGCCTCCATGATCG (dsDNA; blunt, indole analog position 16)` gave a Kd of < 0.003 nM (OGG1 full length assumed; EMSA; 25 °C, product formed during incubation).
With `Ac-DNCQYVYNV-NH2 (N-acetyl, C-amide)` the inhibition was 28% (mouse neutrophil elastase; inhibitor; peptide, wild type neutrophil lysate; 1.25 mM, 30 min preincubation, pH 8.0, 37 °C, added: MeOSuc-AAPV-pNA 1 mM).
With `GAGUUGAGUUGAGUUGAGUUGAGUUGAGUUGAGUUGAGUUGAGUUGAGUUGAGUU (ssRNA; single strand)` the Kd was 101 ± 25 nM (mtrB full length assumed T30V/K37A (Bacillus subtilis, UniProt P19466); filter binding; added: L-tryptophan 1 mM).
`TGAACTCAAAGGAGGTCA (dsDNA)` has a Kd of 215 ± 36 nM (T1, NR1I2/RXRA (Homo sapiens); fluorescence anisotropy; double-stranded DNA, one strand shown; added: SR12813, 9-cis-retinoic acid).
With `ACTCATAGGGTTAGGGGCTGCTGGCCAGATACTCAGATGTAGGGTTACTATGAGC (ssDNA; 5' C6 spacer)` the Kd was 11 nM (TFRC residues 1-760; flow cytometry; PL45; not displaced by anti-CD71, not purified).
With `GGCCUAGCCGUGGGUUCUACCACGUCUCAAGGCU (structured RNA)` the Kd was 547 ± 15.5 nM (Rc3h1 171-326 (Mus musculus, UniProt Q4VGL6); EMSA; added: MgCl2 1 mM).
For `Insulin human`, the brain concentration was 47.6 ± 7 pg/mg tissue (rat, substantia nigra/VTA; intranasal, 20 µg per nostril, 360 min).
For `GGGAGGGAGGGAGGGA (structured RNA; G-quadruplex)`, the Kd was 2.2 ± 1.1 nM (HNRNPR 165-444 (Homo sapiens, UniProt O43390); fluorescence polarization).
`TTTACTCATAGGGTTAGGGGCTGCTGGCCAGATACTCAGATGGTAGGGTTACTATGAGCAAA (ssDNA; 5' C6 spacer)` gave a Kd of < 15 nM (TFRC residues 1-760; flow cytometry; PL45; not purified).
`CUGCAUAGGC (ssRNA)` has a Kd of 15 ± 2 nM (Fab BRG Fab; filter binding).
The Kd of `GGG (ssRNA; m7G 5'-5' triphosphate cap, G2)` is reported as 22.7 ± 0.9 nM (Eif4e; fluorescence quenching titration).
For `GGGUUCUACGAUAAACGGUUAAUGACCAGCUUAUGGCUGGCAGUUCCCCGACGACGACGACGACGACGA / TCGTCGTCGTCGTCGTCGTCG (RNA/DNA hybrid; 2'-F pyrimidine RNA, 21-nt DNA anti-tail)`, the Kd was 355 ± 83 nM (TFRC 1-760 (Homo sapiens, UniProt P02786); flow cytometry; apparent, on cells, not purified).
`AUGCAUAGGU (ssRNA)` has a Kd of 29 ± 3 nM (Fab BRG Fab; filter binding).
With `PRL (Homo sapiens, UniProt P01236)` the pKa was 4.99 (NMR, item: His173; 35 °C, numbering of the source).
With `CCACAAAGAGUCUACAUGUCUAGGGUCUAGACAUGUUCAGCUUUGUGG (structured RNA stem-loop with bulge)` the Kd was 1.4 nM (LARP6 fragment (Homo sapiens); EMSA; lysate; Scatchard, overexpressed, not purified).
For `AUGCAUAGGC (ssRNA)`, the Kd was 10 ± 2 nM (Fab BRG Fab; filter binding).
